Measured values from different studies.
Parts stem from different laboratories: compare values within a part only.

Set 1
Target: RNA binding protein fox-1 homolog 2, RRM domain, GST-SBP tag (RBFOX2, Homo sapiens, UniProt O43251-10, residues 100-194)
Method: RNA Bind-n-Seq
Form: RNA
Sample: in vitro
Concentration: 365 nM
Setting: natural RNA segment, single round, ends assumed
Baseline: no-protein control
Reading: higher = stronger binding
Shared flanks, not repeated: GGGAGUUCUACAGUCCGACGAUC … UGGAAUUCUCGGGUGCCAA
Construct (chain): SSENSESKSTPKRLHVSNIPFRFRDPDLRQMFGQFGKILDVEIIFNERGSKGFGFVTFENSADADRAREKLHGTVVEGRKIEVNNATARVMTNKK
`CUCUGGCCAUCAGUCCUGGUGCCAGAGCUUUGCGUGAAGUUCGGGCCGCAGAGUGGCCCGCUGGGACUCCCAUGUGCUGCCGUCUGAUGUGCUCAGAUGGGCUCAUCGUU` — result for “RBNS enrichment (R)”: 0.247.
`AAAUCUUAUAAAACCCUUGAAAAUAAACAGUCUCUUUUUUACAAAGCCUGUGUUAGAGCACAGAUUUACCUAGGCUUGAAGAUUUGGAAGAAAUAAUAUGUAAGAAUGGC` — result for “RBNS enrichment (R)”: 0.604.
`GCUGGUGUUGGUACCUGUGGAUUUUUCUAUACUGAUGUUUUCGUUUUGCCAAUAUAAUGAGUAUUACAUUGGCCUUGGGGGACAGAAAGGAGGAAGUUCUGACUUUUCAG`: “RBNS enrichment (R)” 0.398.
Under “RBNS enrichment (R)”, `CAAAGCAGCAGGACUGUGGGAAAGAGCCUAACAUCUCCAUGGGGAGGCCUCACCCCAGGGACAGGGCCCUGGAGCUCAGGGUCCUUGUUUCUGCCCUGCCAGCUGCAGCC` is recorded as 0.234.
`AGCUUUACAACUAACAGCGCGCUAGAUGGCAGUUAAUUCGCAGUUAAAGAUAAUGCUUUUUAUUUACACGAAUAUAUCAAGUAGUACCCUCCUAUUGUAUUCACUUCUUC`: “RBNS enrichment (R)” 0.948.
`UAUCUGGGGGCACAUAGGUGAGUCUGCUCCACUCAGAAGGAAGCAUACCUCUGCCCUCAUCCAGGGGACACAGGGUACAUCCCAGGCAUCGGGGAACUGAAGCUCUCACU` — result for “RBNS enrichment (R)”: 0.249.
`GUUGGAUCACAGAAUGUGUGUCUGGGGCAUUAUCUGAAACGUGGUGUCAUCUGAUGCAUUUGGACCAUAUGCUGCCAGACUGCAGAACGGGGGAGCCGGGGCUCAGGGCC`: “RBNS enrichment (R)” 0.328.
`UCUAAAUUUAUAUGUUGAAAUGCUACCUUUUUUAAAAUAAGAAACUAAAUAAAAUUAUUUUACUAUCGUGAUUUGUGUUUUUUUUUCCCACGUCUUCAUUUUUCUGUCAU` — result for “RBNS enrichment (R)”: 1.86.

Set 2
Target: Replicase polyprotein 1ab, nsp13 helicase (rep, Severe acute respiratory syndrome coronavirus 2, UniProt P0DTD1)
Action: inhibitor
Concentration: 20 µM
For `Cc1ccc(CNc2ncnc3ccc(-c4ccc(CO)o4)cc23)o1`, the inhibition was 4.16%.
`CC(=O)N(C)c1cccc(-c2ccnc3c(C(=O)c4cccs4)cnn23)c1` has an inhibition of -1.37%.
`C=CC(=O)Nc1cccc(Nc2nc(Nc3ccc(NC4CN(CCF)C4)cc3OC)ncc2C(F)(F)F)c1` has an inhibition of 18.1%.
With `O=c1[nH]ccc2cc(OC3CCNCC3)ccc12` the inhibition was 5.7%.
The inhibition of `CC(=O)[C@H]1CC[C@H]2[C@@H]3CC=C4C[C@@H](O)CC[C@]4(C)[C@H]3CC[C@]12C` is reported as -3.23%.
With `Oc1ccc(OCc2ccccc2)cc1` the inhibition was 2.83%.
`CC(=O)CC(=O)O` has an inhibition of 0.36%.
With `CCCCOC(=O)c1ccccc1Nc1cccc(C(F)(F)F)c1` the inhibition was 0.12%.
With `CCOC(=O)OC(C)OC(=O)[C@@H]1N2C(=O)[C@@H](NC(=O)[C@H](N)c3ccccc3)[C@H]2SC1(C)C` (stereo partly drawn) the inhibition was 19%.
`CCCCCC(=O)O[C@]1(C(C)=O)CC[C@H]2[C@@H]3CCC4=CC(=O)CC[C@]4(C)[C@H]3CC[C@@]21C` has an inhibition of -6.02%.
The inhibition of `COc1cc2c(cc1OC)CC(=O)N(CCCN(C)C[C@H]1Cc3cc(OC)c(OC)cc31)CC2` is reported as 7.32%.
The inhibition of `Cc1cnc(C(=O)N[C@H]2CCCCC/C=C\[C@@H]3C[C@@]3(C(=O)NS(=O)(=O)C3CC3)NC(=O)[C@@H]3C[C@@H](Oc4nc5ccccc5c5ccccc45)CN3C2=O)cn1` is reported as 6.3%.
`C[C@@H](N)[C@H]1CC[C@H](C(=O)Nc2ccncc2)CC1` has an inhibition of 9.03%.
The inhibition of `C[N+](C)(C)CCOC(N)=O` is reported as 4.53%.
For `N#Cc1ccc(C(c2ccc(C#N)cc2)n2cncn2)cc1`, the inhibition was -1.16%.

Set 3
Target: Replicase polyprotein 1ab, main protease (rep, Severe acute respiratory syndrome coronavirus 2, UniProt P0DTD1)
Effect on: enzyme activity
Action: inhibitor
Concentration: 20 µM
Setting: primary screen
For `Nc1c[n+](N2CCOCC2)no1`, the inhibition was 73.9%.
`CCOC(=O)Nc1ccc(NCc2ccc(F)cc2)nc1N` gave an inhibition of 39.7%.
With `O=c1c(O)c(-c2ccc(O)cc2O)oc2cc(O)cc(O)c12` the inhibition was 30.9%.
For `O=C(O)c1ccc(N2C(=O)/C(=C/c3ccc(-c4ccc([N+](=O)[O-])cc4)o3)C=C2c2ccccc2)cc1`, the inhibition was 61.1%.

Set 4
Cell line: HEK-293T
Effect on: pseudovirus infection
Method: FDA-approved drug library screen
Organism: VSV pseudotyped with SARS-CoV-2 spike
Concentration: 10 µM
Time: 16 h
Baseline: vehicle-treated
`CO/N=C(\C(=O)N[C@@H]1C(=O)N2C(C(=O)O)=C(CSc3nc(=O)c(=O)[nH]n3C)CS[C@H]12)c1csc(N)n1` has a GFP-positive cells of 77.4%.
`Cc1ccc(Cl)c(Nc2ccccc2C(=O)O)c1Cl` has a GFP-positive cells of 126%.
`CC(C)NCC(O)COc1cccc2[nH]ccc12` (stereo not drawn) gave a GFP-positive cells of 91.9%.

Some of these lines once more (set 1):
`UCUAAAUUUAUAUGUUGAAAUGCUACCUUUUUUAAAAUAAGAAACUAAAUAAAAUUAUUUUACUAUCGUGAUUUGUGUUUUUUUUUCCCACGUCUUCAUUUUUCUGUCAU` — result for “RBNS enrichment (R)”: 1.86.
`CUCUGGCCAUCAGUCCUGGUGCCAGAGCUUUGCGUGAAGUUCGGGCCGCAGAGUGGCCCGCUGGGACUCCCAUGUGCUGCCGUCUGAUGUGCUCAGAUGGGCUCAUCGUU` — result for “RBNS enrichment (R)”: 0.247.
`GUUGGAUCACAGAAUGUGUGUCUGGGGCAUUAUCUGAAACGUGGUGUCAUCUGAUGCAUUUGGACCAUAUGCUGCCAGACUGCAGAACGGGGGAGCCGGGGCUCAGGGCC`: “RBNS enrichment (R)” 0.328.
